Results gathered from unrelated publications.

CN1c2ccc(OC(=O)Nc3ccncc3)cc2C2(C)CCOC12 (centres unmarked) — Tmax (wild-type mice, brain; subcutaneous, 20 mg/kg): ~1 h
CC(C)C[C@H](NC(=O)[C@H](Cc1ccccc1)NC(=O)CNC(=O)C/C=C(\F)[C@@H](N)Cc1ccc(O)cc1)C(=O)O — Tmax (BALB/c mice, brain; intravenous, 50 mg/kg): 0.0833 h
CCn1ccc(-c2cc(-c3cnn(C)c3)cc([C@@H](C)NC(=O)c3cc(OCCN(C)C)ccc3C)c2)n1 — Tmax (C57BL/6J mice, male, plasma; oral, 50 mg/kg): 1.67 h
CCCCCCCCCCCCCCCC(=O)NCCCC[C@H](NC(=O)[C@H](CCC(=O)O)NC(=O)[C@H](Cc1ccc(O)cc1)NC(=O)[C@H](CCC(=O)O)NC(=O)COCC(=O)NCCCOCCOCCOCCCNC(=O)[C@H](Cc1ccccc1)NC(=O)[C@H](CC(N)=O)NC(=O)[C@H](Cc1c[nH]cn1)NC(=O)[C@@H](NC(=O)[C@H](CC(=O)O)NC(=O)[C@H](CCC(N)=O)NC(=O)[C@H](CC(C)C)NC(=O)[C@H](CCCCN)NC(=O)[C@H](CCCCN)NC(=O)[C@H](CCCNC(=N)N)NC(=O)[C@H](CC(C)C)NC(=O)[C@H](Cc1c[nH]c2ccccc12)NC(=O)[C@H](CCC(=O)O)NC(=O)[C@@H](NC(=O)[C@H](CCCNC(=N)N)NC(=O)[C@H](CCC(=O)O)NC(=O)[C@H](CCSC)NC(=O)[C@H](CO)NC(=O)[C@H](CC(N)=O)NC(=O)[C@H](CC(C)C)NC(=O)[C@H](Cc1c[nH]cn1)NC(=O)[C@H](CCCCN)NC(=O)CNC(=O)[C@H](CC(C)C)NC(=O)[C@H](CC(N)=O)NC(=O)[C@H](Cc1c[nH]cn1)NC(=O)[C@H](CCSC)NC(=O)[C@H](CC(C)C)NC(=O)[C@H](CCC(N)=O)NC(=O)[C@@H](NC(=O)[C@H](CCC(=O)O)NC(=O)[C@H](CO)NC(=O)[C@@H](NC(=O)[C@@H](N)CO)C(C)C)[C@@H](C)CC)C(C)C)C(C)C)C(=O)N[C@@H](CCC(=O)O)C(=O)N[C@@H](Cc1ccc(O)cc1)C(=O)N[C@@H](CCC(=O)O)C(N)=O — Tmax (ELISA; CD-1 mice, blood; sc, 10 nmol/kg): 1 h
CC[C@H](C)[C@H](NC(=O)[C@H](CC(N)=O)NC(=O)[C@H](CC(N)=O)NC(=O)[C@H](CCCNC(=N)N)NC(=O)[C@H](CC(N)=O)NC(=O)[C@H](CCCNC(=N)N)NC(=O)[C@H](CCCCN)NC(=O)[C@@H](NC(=O)[C@H](CC(N)=O)NC(=O)[C@H](CCSC)NC(=O)[C@H](CC(C)C)NC(=O)[C@H](Cc1c[nH]c2ccccc12)NC(=O)[C@H](CCC(N)=O)NC(=O)[C@@H](NC(=O)[C@H](Cc1ccccc1)NC(=O)[C@H](CC(=O)O)NC(=O)[C@H](CCC(N)=O)NC(=O)[C@H](C)NC(=O)[C@H](CCCNC(=N)N)NC(=O)[C@H](CCCNC(=N)N)NC(=O)[C@H](CO)NC(=O)[C@H](CC(=O)O)NC(=O)[C@H](CC(C)C)NC(=O)[C@H](Cc1ccc(O)cc1)NC(=O)[C@H](CCCCN)NC(=O)[C@H](CO)NC(=O)[C@H](Cc1ccc(O)cc1)NC(=O)[C@H](CC(=O)O)NC(=O)[C@H](CO)NC(=O)[C@@H](NC(=O)[C@H](Cc1ccccc1)NC(=O)[C@@H](NC(=O)CNC(=O)[C@H](CCC(=O)O)NC(=O)[C@@H](CO)NC(=O)[C@@H](N)Cc1c[nH]cn1)[C@@H](C)O)[C@@H](C)O)C(C)C)[C@@H](C)O)C(=O)N[C@@H](C)C(=O)N[C@@H](CSCC(=O)NCCOCCOCCOCCOCCC(=O)O[C@H]1CC[C@@]2(C)C(=CC[C@H]3[C@@H]4CC[C@H]([C@H](C)CCCC(C)C)[C@@]4(C)CC[C@@H]32)C1)C(N)=O — Tmax (diet-induced obese mice, plasma; subcutaneous, dose not given): ~5 h
CCCCCC1=C(NCC)C(=O)C(C/C=C(\C)CCC=C(C)C)=C(O)C1=O — Tmax (CD-1 mice, plasma; oral, 50 mg/kg): 4 h
CC(C)[C@H]1NC(=O)C[C@H]2/C=C/CCSSC[C@@H](NC1=O)C(=O)N[C@H](Cc1cccc3ccccc13)C(=O)NCC(=O)O2 — Tmax (BALB/cAJcl-nu/nu mice, plasma; intraperitoneal or oral, dose not given): 0.25 h
C[C@H](CCC(=O)N[C@@H](CCCCNC(=O)C(F)(F)F)C(=O)O)[C@H]1CC[C@H]2[C@@H]3[C@H](O)C[C@@H]4C[C@H](O)CC[C@]4(C)[C@H]3C[C@H](O)[C@]12C — Tmax (C57BL/6J mice, gallbladder; oral, dose not given): 4 to 7 h

A few entries again:
CC[C@H](C)[C@H](NC(=O)[C@H](CC(N)=O)NC(=O)[C@H](CC(N)=O)NC(=O)[C@H](CCCNC(=N)N)NC(=O)[C@H](CC(N)=O)NC(=O)[C@H](CCCNC(=N)N)NC(=O)[C@H](CCCCN)NC(=O)[C@@H](NC(=O)[C@H](CC(N)=O)NC(=O)[C@H](CCSC)NC(=O)[C@H](CC(C)C)NC(=O)[C@H](Cc1c[nH]c2ccccc12)NC(=O)[C@H](CCC(N)=O)NC(=O)[C@@H](NC(=O)[C@H](Cc1ccccc1)NC(=O)[C@H](CC(=O)O)NC(=O)[C@H](CCC(N)=O)NC(=O)[C@H](C)NC(=O)[C@H](CCCNC(=N)N)NC(=O)[C@H](CCCNC(=N)N)NC(=O)[C@H](CO)NC(=O)[C@H](CC(=O)O)NC(=O)[C@H](CC(C)C)NC(=O)[C@H](Cc1ccc(O)cc1)NC(=O)[C@H](CCCCN)NC(=O)[C@H](CO)NC(=O)[C@H](Cc1ccc(O)cc1)NC(=O)[C@H](CC(=O)O)NC(=O)[C@H](CO)NC(=O)[C@@H](NC(=O)[C@H](Cc1ccccc1)NC(=O)[C@@H](NC(=O)CNC(=O)[C@H](CCC(=O)O)NC(=O)[C@@H](CO)NC(=O)[C@@H](N)Cc1c[nH]cn1)[C@@H](C)O)[C@@H](C)O)C(C)C)[C@@H](C)O)C(=O)N[C@@H](C)C(=O)N[C@@H](CSCC(=O)NCCOCCOCCOCCOCCC(=O)O[C@H]1CC[C@@]2(C)C(=CC[C@H]3[C@@H]4CC[C@H]([C@H](C)CCCC(C)C)[C@@]4(C)CC[C@@H]32)C1)C(N)=O — Tmax (diet-induced obese mice, plasma; subcutaneous, dose not given): ~5 h
